{"data": "Published values from different studies", "note": "Each line is one published result; not all experiments were run side by side."}
{"Structure (SMILES)": "CC[C@H](Nc1ncnc2[nH]cnc12)c1oc2ccccc2c(=O)c1-c1cccc(F)c1", "system": "human patients, plasma", "conditions": "oral, 600 mg twice daily, together with: romidepsin 12 mg/m2", "endpoint": "median Tmax", "result": "3 h"}
{"Structure (SMILES)": "COc1ncc(-c2nc3c(n2C(C)C)[C@H](c2ccc(Cl)cc2)N(c2cc(Cl)cn(C)c2=O)C3=O)c(OC)n1", "system": "human patients, plasma", "conditions": "oral, 50 mg, high-dose arm, cycle 1 day 1", "endpoint": "median Tmax", "result": "3 h"}
{"Structure (SMILES)": "CC(C)=CCC/C(C)=C/CC/C(C)=C/CC[C@@](C)(O)CCC1=C(C)C(=O)C(C)=C(C)C1=O", "system": "healthy human, plasma", "conditions": "oral, 400 mg", "endpoint": "median half-life", "result": "10.6 h"}
{"Structure (SMILES)": "COc1cc2nccc(Oc3ccc(NC(=O)c4cc5c(n(-c6ccccc6)c4=O)CCCC5=O)nc3)c2cc1OC", "system": "human patients", "conditions": "oral, with venetoclax 6 mg once daily", "endpoint": "median Tmax", "result": "4.1 h"}
{"Structure (SMILES)": "CN[C@@H](C)C(=O)N[C@H]1CN(S(=O)(=O)c2cccc(S(=O)(=O)N3CC[C@H]4CC[C@@H](C(=O)NC(c5ccccc5)c5ccccc5)N4C(=O)[C@@H](NC(=O)[C@H](C)NC)C3)c2)CC[C@H]2CC[C@@H](C(=O)NC(c3ccccc3)c3ccccc3)N2C1=O", "system": "human, plasma", "conditions": "intravenous infusion once weekly, 20 to 45 mg, infusion 30 min", "endpoint": "median Tmax", "result": "0.5 to 0.52 h"}
{"Structure (SMILES)": "CCN(Cc1nc2c(N)nc3cc(-c4cc[nH]n4)ccc3c2[nH]1)C(C)=O", "system": "human patients, plasma", "conditions": "intratumoral, dose not given", "endpoint": "median Tmax", "result": "1 to 2 h"}
{"Structure (SMILES)": "CO[C@H]1C[C@@H]2CC[C@@H](C)[C@@](O)(O2)C(=O)C(=O)N2CCCC[C@H]2C(=O)O[C@H]([C@H](C)C[C@@H]2CC[C@@H](OCCO)[C@H](OC)C2)CC(=O)[C@H](C)/C=C(\\C)[C@@H](O)[C@@H](OC)C(=O)[C@H](C)C[C@H](C)/C=C/C=C/C=C/1C", "system": "human, plasma", "conditions": "oral, 5 mg, single dosing, together with: vorolanib 100 mg", "endpoint": "median Tmax", "result": "1 h"}
{"Structure (SMILES)": "COc1nnc2ccc(N3CCC(c4ccc(OCCN5CCN(C)C(=O)[C@H]5C)cc4)CC3)nn12", "system": "human, blood", "conditions": "oral, 30 mg once daily", "endpoint": "median time to platelet recovery", "result": "6 weeks"}
{"Structure (SMILES)": "CCCCOc1ccc([C@H]2CC[C@H](CCC)CC2)c(F)c1F", "system": "human mother-newborn pairs, cord serum", "conditions": "female fetuses", "endpoint": "median concentration", "result": "6.56 ng/mL"}
{"note": "A few entries again:"}
{"Structure (SMILES)": "COc1cc2nccc(Oc3ccc(NC(=O)c4cc5c(n(-c6ccccc6)c4=O)CCCC5=O)nc3)c2cc1OC", "system": "human patients", "conditions": "oral, with venetoclax 6 mg once daily", "endpoint": "median Tmax", "result": "4.1 h"}
